Results of several laboratories.
Parts stem from different laboratories: compare values within a part only. Changes are numbered by the printed parent chain.

Series 1
Target: Ras GTPase-activating protein-binding protein 1, full length (G3BP1, Homo sapiens, UniProt Q13283)
Chain of UniProt Q13283 (whole entry, looked up): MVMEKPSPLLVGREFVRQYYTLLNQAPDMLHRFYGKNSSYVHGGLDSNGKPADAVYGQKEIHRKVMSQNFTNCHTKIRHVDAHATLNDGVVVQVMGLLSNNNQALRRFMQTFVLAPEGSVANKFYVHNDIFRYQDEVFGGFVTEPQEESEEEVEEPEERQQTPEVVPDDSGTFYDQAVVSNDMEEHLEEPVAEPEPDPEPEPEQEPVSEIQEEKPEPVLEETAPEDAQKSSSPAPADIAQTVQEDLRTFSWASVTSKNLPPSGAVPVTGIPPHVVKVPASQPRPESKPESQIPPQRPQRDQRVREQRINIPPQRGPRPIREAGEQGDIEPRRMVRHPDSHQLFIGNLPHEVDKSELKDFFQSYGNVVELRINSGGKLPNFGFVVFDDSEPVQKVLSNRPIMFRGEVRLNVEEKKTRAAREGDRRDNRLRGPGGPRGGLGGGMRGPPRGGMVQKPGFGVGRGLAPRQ
Method: RNA Bind-n-Seq
Molecule type: RNA
Sample: in vitro
Concentration: 200 nM
Setting: whole 134-nt RNA, ends assumed
Added: 150 mM KCl
Relative to: input library
Reading: higher = stronger binding
Quantity: log2 enrichment
Constant ends, left off below: GGGAGUUCUACAGUCCGACGAUC … UGGAAUUCUCGGGUGUCAAGG
AGUCCUGUGCUACACAUCGUAUGUACCGAAUCGGGGUUUGGGGAAAGGGGAAAGGGGAAAGUAUUAUGUUACGCCGUUCGGAUCUGCACU: 0.795
AAGUCCUGUGCUACACAUCGUAUGUACCGAAUCGGGAGGGUUUUUUUGGGUUUGGGAAAGUAUUAUGUUACGCCGUUCGGAUCUGCACUU: 0.0739
CCUCAAGUCCUGUGCUACACAUCGUAUGUACCGAAUCGGAAAAAGGAGGUGGAAAGUAUUAUGUUACGCCGUUCGGAUCUGCACUUCCAG: -0.121
AAGUCCUGUGCUACACAUCGUAUGUACCGAAUCGGGUGGGUUUUUUUGGGAAAGGGAAAGUAUUAUGUUACGCCGUUCGGAUCUGCACUU: -0.052
UAGGUAAGAAAGUACUCAUUGUCUAUGCACACCAGGAACCCAAGUCUUUCAACGGAUCCUUGAAGAAUGUGGCUGUAGAUGAACUGAGCA: 1.23e-05
GUCCUGUGCUACACAUCGUAUGUACCGAAUCGGGUUUUUGGUUUUUGGGGUUUUUGGGGAAAGUAUUAUGUUACGCCGUUCGGAUCUGCA: -0.521
UAACUUUAGAGGAGCAUCUGAUGGAUAUGGCAGUGGACGUGGAUUUGGGGAUGGCUAUAAUGGGUAUGGAGGAGGACCUGGAGGUGGCAA: 0.688

Series 2
Target: CCNE2, cyclin fold, Cln2 fusion (human)
Method: yeast growth competition, sequencing
Sample: yeast
Setting: strong parent motif
Relative to: not given
Reading: higher = stronger binding
Quantity: normalised enrichment score
Parent: BRCA2 docking peptide (human); PSIKRNLLNEFDR
R5T: -0.54
N9P: 2.02
L8Q: 0.54
L7W: 0.434
R5E: -0.173
P1H: 2.74
N6Y: 0.39

Series 3
Target: Prothrombin, mature alpha-thrombin (F2, Homo sapiens, UniProt P00734)
Method: aptamer microarray, sandwich
Molecule type: DNA with 2'F-ANA
Sample: in vitro
Concentration: 200 nM
Setting: whole 15-mer aptamer, many near background
Added: Cy3 exosite-II aptamer, 400 nM
Reading: higher = stronger binding
Quantity: mean fluorescence intensity
Sequence: GGTTGGTGTGGTTGG
2'F-ANA at 3 4 8 9 12 13: 637 a.u.
2'F-ANA at 2 3 9 13: 651 a.u.
2'F-ANA at 9 10 11 13 14 15: 105 a.u.
2'F-ANA at 2 3 5 6 10 13 14 15: 48.4 a.u.
2'F-ANA at 1 2 11: 142 a.u.
2'F-ANA at 2 8 10 13 14 15: 78.8 a.u.
2'F-ANA at 2 7 10 11 15: 123 a.u.
2'F-ANA at 2 3 4 5 7 9 10 11 14: 65.6 a.u.

Single results of other studies
PhoQ, residues 284 288 289 292 302 303 QWQEDG  fold induction (PhoP, residues 12 14 15 18 19 AGCRL (Escherichia coli, UniProt P23836); Sort-seq, measured: YFP reporter; E. coli; PhoQ-PhoP variant library, added: 10 µM Mg2+; relative to: high Mg2+ state, higher = stronger signaling): 1.58

Some of these lines once more (series 3):
2'F-ANA at 2 3 4 5 7 9 10 11 14: 65.6 a.u.
2'F-ANA at 2 8 10 13 14 15: 78.8 a.u.
2'F-ANA at 9 10 11 13 14 15: 105 a.u.
